Results collected from several papers.
± gives the spread as reported.
FFAR4: Free fatty acid receptor 4 (FFAR4, Homo sapiens, UniProt Q5NUL3)
Chain of UniProt Q5NUL3 (whole entry, looked up): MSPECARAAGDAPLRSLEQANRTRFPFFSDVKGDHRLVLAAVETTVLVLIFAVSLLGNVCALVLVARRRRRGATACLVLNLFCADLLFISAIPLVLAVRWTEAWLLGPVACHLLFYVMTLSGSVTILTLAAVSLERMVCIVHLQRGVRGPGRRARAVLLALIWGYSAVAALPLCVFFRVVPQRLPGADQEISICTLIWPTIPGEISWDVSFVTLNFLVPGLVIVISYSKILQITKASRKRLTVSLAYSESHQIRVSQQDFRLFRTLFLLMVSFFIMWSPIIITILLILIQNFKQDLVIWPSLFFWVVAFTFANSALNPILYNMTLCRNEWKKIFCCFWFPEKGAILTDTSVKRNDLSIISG
Alpha-amylase: Alpha-amylase (Bos taurus, UniProt Q3MHH8)
Chain of UniProt Q13464 (whole entry, looked up): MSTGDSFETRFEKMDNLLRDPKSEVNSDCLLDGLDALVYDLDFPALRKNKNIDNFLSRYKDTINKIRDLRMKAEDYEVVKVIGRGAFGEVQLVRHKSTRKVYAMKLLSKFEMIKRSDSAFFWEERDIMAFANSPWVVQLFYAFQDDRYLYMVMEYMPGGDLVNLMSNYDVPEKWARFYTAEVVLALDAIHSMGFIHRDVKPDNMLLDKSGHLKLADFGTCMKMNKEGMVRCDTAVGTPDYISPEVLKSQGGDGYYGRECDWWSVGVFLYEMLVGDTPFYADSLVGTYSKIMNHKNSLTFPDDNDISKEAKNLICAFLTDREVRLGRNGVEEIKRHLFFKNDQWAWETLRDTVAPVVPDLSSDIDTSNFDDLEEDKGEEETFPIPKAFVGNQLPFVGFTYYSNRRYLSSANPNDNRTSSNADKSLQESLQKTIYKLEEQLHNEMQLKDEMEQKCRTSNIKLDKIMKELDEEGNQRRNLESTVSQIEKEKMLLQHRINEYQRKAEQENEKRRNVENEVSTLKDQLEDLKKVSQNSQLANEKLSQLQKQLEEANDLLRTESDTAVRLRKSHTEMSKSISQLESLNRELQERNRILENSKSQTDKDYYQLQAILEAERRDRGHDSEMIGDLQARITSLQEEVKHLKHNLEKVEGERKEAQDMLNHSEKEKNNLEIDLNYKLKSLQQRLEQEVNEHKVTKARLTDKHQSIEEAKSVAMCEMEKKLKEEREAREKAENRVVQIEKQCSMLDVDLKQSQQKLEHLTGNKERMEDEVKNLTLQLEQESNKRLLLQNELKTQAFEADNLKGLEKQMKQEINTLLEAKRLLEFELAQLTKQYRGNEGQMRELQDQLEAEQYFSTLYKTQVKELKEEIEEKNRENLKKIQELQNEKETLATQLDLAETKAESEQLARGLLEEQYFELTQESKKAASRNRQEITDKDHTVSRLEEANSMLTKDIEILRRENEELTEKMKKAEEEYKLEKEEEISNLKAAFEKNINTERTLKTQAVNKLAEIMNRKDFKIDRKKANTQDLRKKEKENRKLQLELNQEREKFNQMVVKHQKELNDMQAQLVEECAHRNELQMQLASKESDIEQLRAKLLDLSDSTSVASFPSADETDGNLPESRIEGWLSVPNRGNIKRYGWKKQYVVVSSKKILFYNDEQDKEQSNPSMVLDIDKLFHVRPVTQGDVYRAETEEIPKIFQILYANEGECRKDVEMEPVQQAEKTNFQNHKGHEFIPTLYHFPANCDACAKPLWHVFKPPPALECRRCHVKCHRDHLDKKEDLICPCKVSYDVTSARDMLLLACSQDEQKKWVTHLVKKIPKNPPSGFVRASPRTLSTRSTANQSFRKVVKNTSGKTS
Chain of UniProt Q15418 (whole entry, looked up): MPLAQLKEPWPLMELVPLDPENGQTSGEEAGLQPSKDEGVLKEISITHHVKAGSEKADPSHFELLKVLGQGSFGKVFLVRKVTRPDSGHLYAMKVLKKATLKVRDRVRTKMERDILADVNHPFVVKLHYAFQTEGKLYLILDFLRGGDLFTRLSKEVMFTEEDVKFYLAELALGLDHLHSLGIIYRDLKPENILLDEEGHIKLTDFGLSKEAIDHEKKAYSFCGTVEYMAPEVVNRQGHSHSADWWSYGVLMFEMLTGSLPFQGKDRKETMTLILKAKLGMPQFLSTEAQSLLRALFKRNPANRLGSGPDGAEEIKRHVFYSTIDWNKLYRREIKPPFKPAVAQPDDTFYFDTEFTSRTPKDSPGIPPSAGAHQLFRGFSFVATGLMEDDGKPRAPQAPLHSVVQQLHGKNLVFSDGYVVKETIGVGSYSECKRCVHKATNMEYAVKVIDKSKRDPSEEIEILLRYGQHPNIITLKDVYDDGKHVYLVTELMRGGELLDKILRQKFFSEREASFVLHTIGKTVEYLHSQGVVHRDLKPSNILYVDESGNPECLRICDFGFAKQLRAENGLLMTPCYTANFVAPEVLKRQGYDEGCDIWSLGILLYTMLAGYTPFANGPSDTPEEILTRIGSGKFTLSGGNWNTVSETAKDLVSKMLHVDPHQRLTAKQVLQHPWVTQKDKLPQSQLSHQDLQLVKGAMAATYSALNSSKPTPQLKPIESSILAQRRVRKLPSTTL
Chain of UniProt Q9UHD2 (whole entry, looked up): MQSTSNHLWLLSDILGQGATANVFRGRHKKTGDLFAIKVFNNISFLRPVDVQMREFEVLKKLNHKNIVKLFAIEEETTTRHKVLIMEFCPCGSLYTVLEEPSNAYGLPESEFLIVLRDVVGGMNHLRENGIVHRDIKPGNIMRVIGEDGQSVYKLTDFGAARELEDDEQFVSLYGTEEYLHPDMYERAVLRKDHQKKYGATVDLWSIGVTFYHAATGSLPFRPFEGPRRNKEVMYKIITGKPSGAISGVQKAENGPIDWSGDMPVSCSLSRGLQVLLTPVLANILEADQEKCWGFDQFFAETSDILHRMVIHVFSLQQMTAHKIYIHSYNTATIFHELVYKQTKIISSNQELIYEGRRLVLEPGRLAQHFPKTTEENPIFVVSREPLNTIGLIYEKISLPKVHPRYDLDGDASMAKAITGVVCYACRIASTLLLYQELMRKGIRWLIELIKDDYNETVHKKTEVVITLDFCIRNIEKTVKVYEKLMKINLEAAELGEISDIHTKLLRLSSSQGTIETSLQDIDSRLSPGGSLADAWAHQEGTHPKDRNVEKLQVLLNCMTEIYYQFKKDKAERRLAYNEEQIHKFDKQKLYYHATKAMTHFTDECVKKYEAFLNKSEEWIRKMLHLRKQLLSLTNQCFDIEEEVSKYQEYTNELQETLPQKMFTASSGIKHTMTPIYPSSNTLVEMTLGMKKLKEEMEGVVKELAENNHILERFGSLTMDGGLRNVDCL

O=c1cc(NCCc2cccs2)[nH]c(=O)[nH]1
inhibition (FFAR4; antagonist, β-arrestin recruitment; CHO cells; 10 µM): -19 ± 8%

[2H]c1cc(C)c(NC(=O)c2cnc(Nc3cc(N4CCCCC4)nc(C)n3)s2)c(Cl)c1
inhibition (Rho-associated protein kinase 1 (ROCK1, Homo sapiens, UniProt Q13464); 0.01 µM): < 30%

CC[C@@H]1[C@H](F)C(=O)N[C@@H]1COc1nccc2cc(C(N)=O)c(OC)cc12
inhibition (Ribosomal protein S6 kinase alpha-1 (RPS6KA1, Homo sapiens, UniProt Q15418); ATP probe binding, KiNativ profiling, item: domain 2 Lys2 site; THP-1 cell lysate; 0.2 mM): -12.2%

CC1=NN(c2cccc([N+](=O)[O-])c2)C(=O)C1=NNc1ccc(S(N)(=O)=O)cc1
inhibition (Alpha-amylase; enzyme activity, inhibitor, glucose oxidase; 500 µg/mL, with: dextrin): 12.9%

O=c1cc(NCc2cccc3ccccc23)[nH]c(=O)[nH]1
inhibition (FFAR4; antagonist, β-arrestin recruitment; CHO cells; 10 µM): 5 ± 16%

CC1=NN(c2ccccn2)C(=O)C1=NNc1ccc(S(N)(=O)=O)cc1
inhibition (Alpha-amylase; enzyme activity, inhibitor, glucose oxidase; 10 µg/mL, with: dextrin): 5.3743 ± 0.000287%

Cn1cc(-c2cnc3ccc(NC(=O)Nc4ccc(F)c(Br)c4)cc3n2)cn1
inhibition (Serine/threonine-protein kinase TBK1 (TBK1, Homo sapiens, UniProt Q9UHD2); kinase binding, KiNativ profiling, item: Lys1 peptide; PANC-1 lysate; 7.5 µM): 5.5%

O=Nc1c(NCCc2ccccc2)[nH]c(=O)[nH]c1=O
inhibition (FFAR4; antagonist, β-arrestin recruitment; CHO cells; 10 µM): 19 ± 8%

CC1=NOC(=O)C1=NNc1ccc(S(N)(=O)=O)cc1
inhibition (Alpha-amylase; enzyme activity, inhibitor, glucose oxidase; 200 µg/mL, with: dextrin): 35.9%

Some of these lines once more:
O=Nc1c(NCCc2ccccc2)[nH]c(=O)[nH]c1=O
inhibition (FFAR4; antagonist, β-arrestin recruitment; CHO cells; 10 µM): 19 ± 8%
